Published values gathered from unrelated publications.
4'-phosphopantetheinyl transferase PptT: 4'-phosphopantetheinyl transferase PptT (Mycobacterium tuberculosis, UniProt O33336)
Chain of UniProt O33336 (whole entry, looked up): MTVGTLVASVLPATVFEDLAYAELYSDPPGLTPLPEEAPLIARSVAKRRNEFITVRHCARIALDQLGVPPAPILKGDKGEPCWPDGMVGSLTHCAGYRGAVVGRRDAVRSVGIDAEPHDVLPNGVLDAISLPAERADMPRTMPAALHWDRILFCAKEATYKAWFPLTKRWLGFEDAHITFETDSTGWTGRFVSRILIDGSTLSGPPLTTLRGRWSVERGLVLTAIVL
Chain of UniProt Q13546 (whole entry, looked up): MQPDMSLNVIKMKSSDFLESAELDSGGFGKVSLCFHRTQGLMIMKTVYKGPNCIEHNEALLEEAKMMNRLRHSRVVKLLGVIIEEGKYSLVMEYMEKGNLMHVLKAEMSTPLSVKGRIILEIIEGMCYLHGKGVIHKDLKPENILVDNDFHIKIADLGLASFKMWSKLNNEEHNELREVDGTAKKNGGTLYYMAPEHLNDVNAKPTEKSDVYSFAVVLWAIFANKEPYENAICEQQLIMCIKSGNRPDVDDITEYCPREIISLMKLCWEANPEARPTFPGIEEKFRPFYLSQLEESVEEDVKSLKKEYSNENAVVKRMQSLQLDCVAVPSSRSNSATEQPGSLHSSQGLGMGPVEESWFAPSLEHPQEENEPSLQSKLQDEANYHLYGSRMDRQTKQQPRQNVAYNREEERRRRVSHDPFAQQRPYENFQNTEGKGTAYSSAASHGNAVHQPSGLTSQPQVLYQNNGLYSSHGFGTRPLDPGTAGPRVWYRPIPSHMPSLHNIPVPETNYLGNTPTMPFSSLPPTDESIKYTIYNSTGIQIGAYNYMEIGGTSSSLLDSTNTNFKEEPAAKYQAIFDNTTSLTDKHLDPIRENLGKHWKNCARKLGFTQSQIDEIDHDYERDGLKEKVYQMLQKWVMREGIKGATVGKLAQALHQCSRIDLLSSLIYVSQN
Chain of UniProt P21728 (whole entry, looked up): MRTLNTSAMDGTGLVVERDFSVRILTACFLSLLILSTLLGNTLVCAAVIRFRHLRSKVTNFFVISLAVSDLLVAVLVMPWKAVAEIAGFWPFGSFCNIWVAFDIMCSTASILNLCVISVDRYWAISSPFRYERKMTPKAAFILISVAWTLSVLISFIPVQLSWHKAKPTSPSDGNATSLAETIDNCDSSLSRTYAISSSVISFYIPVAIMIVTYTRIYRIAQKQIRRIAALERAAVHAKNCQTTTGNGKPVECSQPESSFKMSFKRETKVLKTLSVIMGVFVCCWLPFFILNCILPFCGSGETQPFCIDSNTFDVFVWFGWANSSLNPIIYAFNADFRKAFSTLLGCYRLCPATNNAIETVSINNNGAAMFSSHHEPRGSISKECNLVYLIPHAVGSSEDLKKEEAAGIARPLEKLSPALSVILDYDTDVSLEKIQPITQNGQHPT
Chain of UniProt P42336 (whole entry, unmodified, looked up): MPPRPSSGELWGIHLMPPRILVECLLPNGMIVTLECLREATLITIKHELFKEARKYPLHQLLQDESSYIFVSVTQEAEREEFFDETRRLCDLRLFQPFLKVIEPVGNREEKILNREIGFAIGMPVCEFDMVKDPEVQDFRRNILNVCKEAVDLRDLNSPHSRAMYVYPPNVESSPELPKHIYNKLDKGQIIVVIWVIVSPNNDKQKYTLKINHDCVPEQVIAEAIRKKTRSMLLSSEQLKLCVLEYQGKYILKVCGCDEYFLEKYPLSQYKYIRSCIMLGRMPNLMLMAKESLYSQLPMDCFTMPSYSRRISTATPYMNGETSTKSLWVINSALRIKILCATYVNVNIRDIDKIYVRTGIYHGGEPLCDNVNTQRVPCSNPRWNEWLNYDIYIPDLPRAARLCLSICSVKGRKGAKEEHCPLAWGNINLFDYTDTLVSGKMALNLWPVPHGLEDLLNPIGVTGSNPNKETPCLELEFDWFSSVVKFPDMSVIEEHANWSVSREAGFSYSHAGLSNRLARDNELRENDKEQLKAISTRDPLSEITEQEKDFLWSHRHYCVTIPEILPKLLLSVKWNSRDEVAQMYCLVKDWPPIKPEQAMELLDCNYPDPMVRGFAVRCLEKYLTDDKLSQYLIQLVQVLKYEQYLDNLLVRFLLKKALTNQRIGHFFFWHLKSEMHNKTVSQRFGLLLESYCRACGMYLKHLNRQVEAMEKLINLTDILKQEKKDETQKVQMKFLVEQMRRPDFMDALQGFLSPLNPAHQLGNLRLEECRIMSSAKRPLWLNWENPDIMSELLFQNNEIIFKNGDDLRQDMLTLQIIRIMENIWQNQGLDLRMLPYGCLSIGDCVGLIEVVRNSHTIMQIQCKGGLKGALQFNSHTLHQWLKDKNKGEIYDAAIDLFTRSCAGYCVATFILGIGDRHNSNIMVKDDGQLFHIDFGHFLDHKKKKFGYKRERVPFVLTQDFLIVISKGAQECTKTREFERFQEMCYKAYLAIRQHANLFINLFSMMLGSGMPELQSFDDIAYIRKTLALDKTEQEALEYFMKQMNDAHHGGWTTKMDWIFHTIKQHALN
Chain of UniProt P34972 (whole entry, looked up): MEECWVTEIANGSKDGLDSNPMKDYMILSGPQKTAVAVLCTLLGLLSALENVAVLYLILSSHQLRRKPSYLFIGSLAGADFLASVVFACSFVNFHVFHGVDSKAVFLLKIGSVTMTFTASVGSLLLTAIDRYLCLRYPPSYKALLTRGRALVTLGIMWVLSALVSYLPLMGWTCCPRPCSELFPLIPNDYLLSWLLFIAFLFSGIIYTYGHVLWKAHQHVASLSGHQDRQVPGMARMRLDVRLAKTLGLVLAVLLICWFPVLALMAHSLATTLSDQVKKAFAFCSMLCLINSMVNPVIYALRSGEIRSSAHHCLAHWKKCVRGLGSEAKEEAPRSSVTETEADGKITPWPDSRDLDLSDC
Chain of UniProt Q9NRP7 (whole entry, looked up): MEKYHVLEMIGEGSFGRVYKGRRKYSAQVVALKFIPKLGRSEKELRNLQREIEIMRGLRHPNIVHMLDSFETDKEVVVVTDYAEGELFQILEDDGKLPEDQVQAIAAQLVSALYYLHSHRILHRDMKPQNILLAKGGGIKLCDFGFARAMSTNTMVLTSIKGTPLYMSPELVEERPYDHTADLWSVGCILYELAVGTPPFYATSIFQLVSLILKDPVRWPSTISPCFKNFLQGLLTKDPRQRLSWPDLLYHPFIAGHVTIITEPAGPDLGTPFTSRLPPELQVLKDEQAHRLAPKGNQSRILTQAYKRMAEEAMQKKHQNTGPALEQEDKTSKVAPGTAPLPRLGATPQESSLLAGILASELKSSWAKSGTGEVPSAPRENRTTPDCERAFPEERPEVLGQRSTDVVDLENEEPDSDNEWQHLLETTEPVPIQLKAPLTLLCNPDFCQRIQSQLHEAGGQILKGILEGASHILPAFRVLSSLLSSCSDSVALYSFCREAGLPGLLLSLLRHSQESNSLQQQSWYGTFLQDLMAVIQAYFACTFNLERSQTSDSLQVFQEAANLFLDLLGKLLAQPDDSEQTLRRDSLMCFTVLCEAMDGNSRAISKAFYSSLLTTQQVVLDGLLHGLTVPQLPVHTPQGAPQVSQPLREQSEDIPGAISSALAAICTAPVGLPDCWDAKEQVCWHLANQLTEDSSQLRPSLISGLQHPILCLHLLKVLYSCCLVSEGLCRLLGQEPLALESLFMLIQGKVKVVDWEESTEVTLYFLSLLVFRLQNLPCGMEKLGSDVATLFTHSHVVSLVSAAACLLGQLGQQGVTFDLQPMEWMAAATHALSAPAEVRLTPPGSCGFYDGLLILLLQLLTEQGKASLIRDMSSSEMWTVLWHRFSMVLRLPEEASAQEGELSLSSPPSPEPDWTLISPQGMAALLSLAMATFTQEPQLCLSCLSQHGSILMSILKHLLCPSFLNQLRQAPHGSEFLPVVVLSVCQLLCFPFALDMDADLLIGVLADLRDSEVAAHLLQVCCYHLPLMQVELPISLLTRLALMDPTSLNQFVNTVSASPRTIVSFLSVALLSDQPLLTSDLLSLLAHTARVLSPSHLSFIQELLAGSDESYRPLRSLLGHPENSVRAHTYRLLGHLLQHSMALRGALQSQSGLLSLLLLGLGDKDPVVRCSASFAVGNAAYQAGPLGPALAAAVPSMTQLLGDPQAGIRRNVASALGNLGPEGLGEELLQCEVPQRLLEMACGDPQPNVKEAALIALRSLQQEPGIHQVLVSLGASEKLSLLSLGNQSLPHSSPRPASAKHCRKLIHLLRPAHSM
Chain of UniProt P35626 (whole entry, looked up): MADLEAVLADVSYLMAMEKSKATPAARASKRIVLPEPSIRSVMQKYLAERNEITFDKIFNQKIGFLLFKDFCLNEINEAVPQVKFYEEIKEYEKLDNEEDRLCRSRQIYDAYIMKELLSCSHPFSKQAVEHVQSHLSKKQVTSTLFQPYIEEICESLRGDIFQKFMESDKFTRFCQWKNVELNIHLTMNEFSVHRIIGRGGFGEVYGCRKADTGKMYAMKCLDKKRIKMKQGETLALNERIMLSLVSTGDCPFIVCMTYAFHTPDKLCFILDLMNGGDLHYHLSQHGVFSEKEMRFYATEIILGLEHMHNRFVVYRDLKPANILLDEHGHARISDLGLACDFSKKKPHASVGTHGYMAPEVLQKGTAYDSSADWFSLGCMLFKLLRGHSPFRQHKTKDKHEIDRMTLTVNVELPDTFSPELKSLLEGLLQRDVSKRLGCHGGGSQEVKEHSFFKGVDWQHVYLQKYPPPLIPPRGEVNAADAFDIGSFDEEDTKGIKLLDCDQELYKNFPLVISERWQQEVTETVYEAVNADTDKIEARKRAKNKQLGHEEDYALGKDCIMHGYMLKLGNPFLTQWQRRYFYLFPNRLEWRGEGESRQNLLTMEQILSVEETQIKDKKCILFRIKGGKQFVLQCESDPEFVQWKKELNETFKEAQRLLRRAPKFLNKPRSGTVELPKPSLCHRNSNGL

Structure (SMILES) | target | test | test system | setting | quantity | result
CCN(CC)CCCC[C@H](NC(=O)[C@H](CC(C)C)NC(=O)[C@H](C)NC(=O)[C@H](Cc1ccccc1)NC(=O)c1ccc(C(C)(C)C)cc1)C(=O)N[C@@H](CO)C(=O)OC | Bromodomain-containing protein 4, BD1 (BRD4, Homo sapiens, UniProt O60885) | thermal stability, DSF | – | 25 µM | ΔTm | 0.88 °C
CCCCC/C=C\[C@H](C)/C=C\C/C=C\Cc1ccccc1CCCC(=O)OC(CO)CO | Cannabinoid receptor 2 (CNR2, Homo sapiens, UniProt P34972) | β-arrestin recruitment, agonist | – | – | Emax | 69%
CN(C)C(=O)OCc1cc2[nH]c(=S)n(Cc3cncnc3)c(=O)c2cc1Cl | 4'-phosphopantetheinyl transferase PptT | enzyme activity, inhibitor, FP | – | – | IC50 | 15.6 µM
Cc1nn(C)cc1-c1nc2c(N3CCN(Cc4ccc(Cl)cc4)CC3)c(Cl)cnc2[nH]1 | Phosphatidylinositol 4,5-bisphosphate 3-kinase catalytic subunit alpha isoform (PIK3CA, Homo sapiens, UniProt P42336, E545A) | binding, competition with immobilised ligand | – | 1 µM | remaining binding | 75%
O=c1c2cc(Cl)ccc2[nH]c(=S)n1CCc1cccnc1 | 4'-phosphopantetheinyl transferase PptT | enzyme activity, inhibitor, FP | – | – | IC50 | 1.83 µM
Nc1ncc(-c2nc(N3CCOCC3)nc(N3CCOCC3)n2)c(C(F)F)n1 | cAMP-dependent protein kinase catalytic subunit beta (PRKACB, Homo sapiens, UniProt P22694) | binding, competition with immobilised ligand | – | 10 µM | remaining binding | 61%
[2H]c1c([2H])c([C@]2([2H])CCCN2C(=O)C(C)(C)Oc2ccc3cn[nH]c3c2)c([2H])c([2H])c1C([2H])([2H])[2H] | G protein-coupled receptor kinase 3 (GRK3, Homo sapiens, UniProt P35626) | binding, competition with immobilised ligand | – | 1 µM | remaining binding | 58%
COc1ncccc1-c1cnn2ccc(N3CCN(C(=O)OC(C)C)CC3)nc12 | Serine/threonine-protein kinase 36 (STK36, Homo sapiens, UniProt Q9NRP7) | binding, competition with immobilised ligand | – | 1 µM | remaining binding | 91%
Cc1ncsc1-c1ccc([C@H](CC(=O)N2CCN(c3ccc(C#Cc4ccc(C(=O)N5CCC(n6cc(-c7ccc8c(c7)CCN8C(=O)Cc7cccc(OC(F)(F)F)c7)c7c(N)ncnc76)CC5)cc4)cn3)CC2)NC(=O)[C@@H]2C[C@@H](O)CN2C(=O)[C@@H](NC(=O)C2(F)CC2)C(C)(C)C)cc1 | Receptor-interacting serine/threonine-protein kinase 1 (RIPK1, Homo sapiens, UniProt Q13546) | protein level, degrader, western blot | MOLM-14 | 0.2 µM | Dmax | 99%
CC(C)CC(=O)OC[C@H]1O[C@@](C#N)(c2ccc3c(N)ncnn23)[C@H](O)[C@@H]1O | D(1A) dopamine receptor (DRD1, Homo sapiens, UniProt P21728) | cell-free assay | – | 20 µM | inhibition | 2%
